Assay results gathered from unrelated publications.
Compare with care: the assays were run in different laboratories. Values joined by “and” are separate records of one study, mostly repeats; a detail may differ. Numbers after ± are the reported error.
IRAK4: Interleukin-1 receptor-associated kinase 4 (IRAK4, Homo sapiens, UniProt Q9NWZ3)
GBA1 R534H: Lysosomal acid glucosylceramidase (GBA1, Homo sapiens, UniProt P04062, R534H)
UniProt P04062, sequence (whole entry, unmodified, looked up): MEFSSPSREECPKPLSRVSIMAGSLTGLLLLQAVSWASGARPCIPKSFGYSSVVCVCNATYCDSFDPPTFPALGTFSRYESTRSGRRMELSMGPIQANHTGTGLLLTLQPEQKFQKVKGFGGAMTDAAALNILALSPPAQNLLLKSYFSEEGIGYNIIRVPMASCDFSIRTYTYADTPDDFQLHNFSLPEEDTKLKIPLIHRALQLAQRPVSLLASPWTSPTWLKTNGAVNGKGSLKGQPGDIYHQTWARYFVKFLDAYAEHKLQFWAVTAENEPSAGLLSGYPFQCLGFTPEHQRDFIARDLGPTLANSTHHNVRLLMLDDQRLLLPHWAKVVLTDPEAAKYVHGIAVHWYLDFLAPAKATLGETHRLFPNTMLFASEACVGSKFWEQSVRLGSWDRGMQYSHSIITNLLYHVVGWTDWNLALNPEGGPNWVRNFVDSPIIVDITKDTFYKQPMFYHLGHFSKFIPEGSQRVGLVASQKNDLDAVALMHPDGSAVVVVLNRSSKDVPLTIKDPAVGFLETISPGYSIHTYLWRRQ
PSMB8: Proteasome subunit beta type-8 (PSMB8, Homo sapiens, UniProt P28062)
UniProt P28062, sequence (whole entry, looked up): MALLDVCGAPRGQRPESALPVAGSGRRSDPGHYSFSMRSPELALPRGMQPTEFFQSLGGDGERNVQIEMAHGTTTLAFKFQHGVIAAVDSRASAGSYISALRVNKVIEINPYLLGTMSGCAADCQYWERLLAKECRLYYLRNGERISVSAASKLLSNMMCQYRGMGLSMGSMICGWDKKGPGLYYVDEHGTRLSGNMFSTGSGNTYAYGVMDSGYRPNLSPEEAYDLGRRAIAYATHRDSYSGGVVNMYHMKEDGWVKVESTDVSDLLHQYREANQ
Gria1/Gria2: Glutamate receptor AMPA 1/2 (Gria1/Gria2, Rattus norvegicus, UniProt P19490+P19491)
UniProt P19490, sequence (whole entry, looked up): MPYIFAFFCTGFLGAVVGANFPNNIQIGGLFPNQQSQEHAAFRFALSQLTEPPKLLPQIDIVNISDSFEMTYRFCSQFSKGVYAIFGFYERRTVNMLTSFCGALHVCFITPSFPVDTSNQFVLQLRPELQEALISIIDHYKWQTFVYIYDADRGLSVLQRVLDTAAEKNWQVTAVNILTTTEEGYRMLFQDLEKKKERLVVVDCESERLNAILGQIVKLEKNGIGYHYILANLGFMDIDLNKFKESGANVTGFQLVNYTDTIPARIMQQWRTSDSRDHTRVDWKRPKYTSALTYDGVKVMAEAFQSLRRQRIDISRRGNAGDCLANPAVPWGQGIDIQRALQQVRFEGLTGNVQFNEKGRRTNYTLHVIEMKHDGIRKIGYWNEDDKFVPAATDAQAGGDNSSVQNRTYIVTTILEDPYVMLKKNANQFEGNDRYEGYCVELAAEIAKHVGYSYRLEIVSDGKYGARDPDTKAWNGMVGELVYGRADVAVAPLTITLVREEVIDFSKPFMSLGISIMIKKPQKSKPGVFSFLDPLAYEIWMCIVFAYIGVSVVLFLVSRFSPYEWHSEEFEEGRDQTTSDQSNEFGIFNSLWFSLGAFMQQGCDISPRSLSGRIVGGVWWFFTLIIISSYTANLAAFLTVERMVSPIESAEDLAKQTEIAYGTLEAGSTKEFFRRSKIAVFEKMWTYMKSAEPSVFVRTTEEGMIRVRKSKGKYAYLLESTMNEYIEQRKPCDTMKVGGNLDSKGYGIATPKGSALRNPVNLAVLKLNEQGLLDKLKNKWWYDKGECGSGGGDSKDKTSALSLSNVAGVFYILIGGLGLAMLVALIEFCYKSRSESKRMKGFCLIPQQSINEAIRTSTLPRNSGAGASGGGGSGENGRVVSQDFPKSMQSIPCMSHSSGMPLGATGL
UniProt P19491, sequence (whole entry, looked up): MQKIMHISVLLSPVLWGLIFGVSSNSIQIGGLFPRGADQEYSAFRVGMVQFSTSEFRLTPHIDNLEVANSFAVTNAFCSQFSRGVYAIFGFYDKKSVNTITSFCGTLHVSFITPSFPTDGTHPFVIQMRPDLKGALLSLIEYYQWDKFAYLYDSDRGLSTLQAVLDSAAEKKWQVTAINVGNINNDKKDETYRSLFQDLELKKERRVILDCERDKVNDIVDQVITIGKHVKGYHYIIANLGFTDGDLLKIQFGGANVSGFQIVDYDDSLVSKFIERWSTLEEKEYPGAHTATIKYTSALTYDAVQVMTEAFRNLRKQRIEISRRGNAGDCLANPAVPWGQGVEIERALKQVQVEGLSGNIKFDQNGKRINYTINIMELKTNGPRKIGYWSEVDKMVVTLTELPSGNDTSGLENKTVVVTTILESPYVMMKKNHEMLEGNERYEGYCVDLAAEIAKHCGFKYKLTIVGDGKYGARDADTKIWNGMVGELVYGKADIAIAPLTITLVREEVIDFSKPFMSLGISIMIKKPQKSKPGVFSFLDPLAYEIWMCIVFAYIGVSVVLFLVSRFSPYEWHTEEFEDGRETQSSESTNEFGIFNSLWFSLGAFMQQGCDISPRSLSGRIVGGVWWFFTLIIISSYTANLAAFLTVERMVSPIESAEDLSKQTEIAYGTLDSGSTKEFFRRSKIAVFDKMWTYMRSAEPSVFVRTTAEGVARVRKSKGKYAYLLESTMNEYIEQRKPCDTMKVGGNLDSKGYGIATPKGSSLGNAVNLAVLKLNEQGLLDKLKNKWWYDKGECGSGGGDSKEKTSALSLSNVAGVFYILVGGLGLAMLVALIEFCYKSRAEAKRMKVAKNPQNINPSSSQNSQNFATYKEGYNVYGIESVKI
P4HB: Protein disulfide-isomerase (P4HB, Homo sapiens, UniProt P07237)
UniProt P07237, sequence (whole entry, looked up): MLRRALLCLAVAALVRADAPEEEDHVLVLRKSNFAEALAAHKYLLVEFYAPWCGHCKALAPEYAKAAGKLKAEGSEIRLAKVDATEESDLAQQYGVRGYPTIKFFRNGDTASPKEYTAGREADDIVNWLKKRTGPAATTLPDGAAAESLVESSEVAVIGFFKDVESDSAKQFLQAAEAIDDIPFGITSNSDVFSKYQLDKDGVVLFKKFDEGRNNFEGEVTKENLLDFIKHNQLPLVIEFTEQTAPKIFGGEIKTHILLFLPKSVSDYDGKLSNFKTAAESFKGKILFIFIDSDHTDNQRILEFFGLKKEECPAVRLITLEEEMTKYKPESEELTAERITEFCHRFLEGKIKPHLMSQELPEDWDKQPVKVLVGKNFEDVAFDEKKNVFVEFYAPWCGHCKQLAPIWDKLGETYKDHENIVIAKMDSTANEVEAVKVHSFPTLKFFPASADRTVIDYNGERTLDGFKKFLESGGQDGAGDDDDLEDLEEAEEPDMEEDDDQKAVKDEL
HDAC6: Protein deacetylase HDAC6 (HDAC6, Homo sapiens, UniProt Q9UBN7)
UniProt Q9UBN7, sequence (whole entry, looked up): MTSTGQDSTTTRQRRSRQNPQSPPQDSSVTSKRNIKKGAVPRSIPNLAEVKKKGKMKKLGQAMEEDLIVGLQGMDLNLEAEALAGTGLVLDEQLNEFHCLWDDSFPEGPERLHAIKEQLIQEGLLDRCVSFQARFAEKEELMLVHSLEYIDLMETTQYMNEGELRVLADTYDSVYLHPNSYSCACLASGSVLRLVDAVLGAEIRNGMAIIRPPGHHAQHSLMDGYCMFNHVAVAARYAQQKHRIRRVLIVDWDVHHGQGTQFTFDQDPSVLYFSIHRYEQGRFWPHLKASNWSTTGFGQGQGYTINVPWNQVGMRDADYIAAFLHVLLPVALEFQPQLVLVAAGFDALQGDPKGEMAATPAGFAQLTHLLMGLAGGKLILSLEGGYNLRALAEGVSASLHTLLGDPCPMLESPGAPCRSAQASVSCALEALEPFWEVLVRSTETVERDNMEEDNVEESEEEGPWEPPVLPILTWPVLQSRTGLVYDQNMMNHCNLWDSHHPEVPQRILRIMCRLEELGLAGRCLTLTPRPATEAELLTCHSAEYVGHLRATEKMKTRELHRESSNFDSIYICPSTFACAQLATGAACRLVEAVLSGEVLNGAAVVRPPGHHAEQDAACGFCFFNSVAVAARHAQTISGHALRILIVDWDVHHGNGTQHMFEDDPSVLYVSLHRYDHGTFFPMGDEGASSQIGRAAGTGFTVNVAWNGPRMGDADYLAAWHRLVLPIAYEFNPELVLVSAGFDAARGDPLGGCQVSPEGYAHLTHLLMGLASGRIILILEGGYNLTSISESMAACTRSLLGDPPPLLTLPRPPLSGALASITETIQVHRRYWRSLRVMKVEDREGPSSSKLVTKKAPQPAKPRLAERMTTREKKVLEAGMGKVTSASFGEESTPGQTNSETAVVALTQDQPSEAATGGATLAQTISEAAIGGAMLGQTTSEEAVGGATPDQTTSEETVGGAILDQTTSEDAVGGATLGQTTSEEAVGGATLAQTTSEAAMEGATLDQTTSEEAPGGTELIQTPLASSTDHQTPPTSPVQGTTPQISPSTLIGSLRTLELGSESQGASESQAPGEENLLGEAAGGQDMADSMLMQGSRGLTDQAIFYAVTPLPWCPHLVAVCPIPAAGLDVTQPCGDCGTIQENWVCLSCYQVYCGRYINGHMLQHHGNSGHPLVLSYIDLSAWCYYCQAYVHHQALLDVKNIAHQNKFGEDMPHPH
JAK3: Tyrosine-protein kinase JAK3 (JAK3, Homo sapiens, UniProt P52333)
CDK6: Cyclin-dependent kinase 6 (CDK6, Homo sapiens, UniProt Q00534)
UniProt Q00534, sequence (whole entry, looked up): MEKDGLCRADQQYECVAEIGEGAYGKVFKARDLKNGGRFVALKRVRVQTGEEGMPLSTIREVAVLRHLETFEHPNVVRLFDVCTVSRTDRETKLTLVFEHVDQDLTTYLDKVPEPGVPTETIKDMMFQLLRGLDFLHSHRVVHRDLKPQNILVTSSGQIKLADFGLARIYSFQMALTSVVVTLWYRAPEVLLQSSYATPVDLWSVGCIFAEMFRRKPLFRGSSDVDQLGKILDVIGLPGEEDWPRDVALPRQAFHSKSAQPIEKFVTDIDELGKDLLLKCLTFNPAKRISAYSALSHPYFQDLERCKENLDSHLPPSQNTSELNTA
UniProt P25106, sequence (whole entry, looked up): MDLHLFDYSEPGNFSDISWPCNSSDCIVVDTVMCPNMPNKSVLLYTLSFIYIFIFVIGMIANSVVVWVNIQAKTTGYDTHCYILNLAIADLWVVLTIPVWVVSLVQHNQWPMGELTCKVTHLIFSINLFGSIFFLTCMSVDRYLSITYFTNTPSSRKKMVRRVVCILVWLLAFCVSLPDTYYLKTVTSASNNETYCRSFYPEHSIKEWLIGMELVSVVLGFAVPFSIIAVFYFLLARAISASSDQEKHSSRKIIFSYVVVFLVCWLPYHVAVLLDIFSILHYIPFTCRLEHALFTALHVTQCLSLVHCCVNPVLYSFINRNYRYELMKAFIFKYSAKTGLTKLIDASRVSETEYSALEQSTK

SMILES	target or system	assay	system	conditions	how to read	quantity	value
Fc1cncc(-c2ccc3[nH]c4ncnc(N[C@H]5CC[C@H](N6CCOCC6)CC5)c4c3c2)c1	IRAK4	enzyme activity, inhibitor, AlphaScreen	–	together with: ATP 200 µM	–	IC50	0.0118 µM
O=C(CNc1cccc2c1C(=O)N(C1CCC(=O)NC1=O)C2=O)NCCOCCOCCOCC(=O)N1CCC(CNC(=O)c2cccc(-c3noc(C(F)(F)F)n3)c2)(c2nc(-c3ccccc3)cs2)CC1 (stereo not shown)	HDAC9 (Homo sapiens, UniProt Q9UKV0)	enzyme activity, inhibitor	–	–	–	IC50	0.18 µM
CC(C)(C)NC(=O)C1CCN(Cc2cccc(/N=N/c3ccc(F)c(F)c3F)c2)CC1	ACKR3 (Homo sapiens, UniProt P25106)	ligand displacement, BRET	–	–	–	IC50	> 10 µM
OC[C@@H]1[C@@H](O)[C@H](O)[C@@H](O)CN1CCCCCOCc1ccc(-c2ccccc2)cc1F	GBA1 R534H	inhibitor, 4MU-β-D-glucopyranoside	–	together with: 4MU-β-D-glucopyranoside	–	IC50	0.25 µM
CC(C)C[C@H](NC(=O)[C@H](Cc1ccc(CN)cc1)NC(=O)[C@H](Cc1ccccc1)N=[N+]=[N-])C(=O)N[C@@H](CC1CCC(C2CCCCC2)CC1)C(=O)[C@@]1(C)CO1 (stereo partly shown)	PSMB8	enzyme activity, inhibitor	–	lysate	–	IC50	> 10 µM
CCOc1cc(CN2CC3(CC(N4CCC(C(=O)O)CC4)=NO3)C2)cc(OCC)c1-c1ccc(F)cc1	SSTR5 (Homo sapiens, UniProt P35346, Y47A)	cAMP level, antagonist, GloSensor	AD293	Y47A mutant, bandwidth 1.39, together with: CST17 EC80 and forskolin	–	IC50	43.7 µM
COC(=O)Cc1cc2c(cc1C(=O)c1ccccc1Cl)OCO2	Gria1/Gria2	ion current, patch clamp	–	–	–	IC50	5.29 µM
O=C(/C=C/c1cc2c(cc1Br)OCO2)c1ccc(Br)cc1	P4HB	enzyme activity, inhibitor	–	–	–	IC50	66 µM
COCCN(C)C(C)C(=O)NC(Cc1ccc(-c2ccccc2)cc1)B(O)O (stereo not shown)	20S proteasome, beta1 subunit (Plasmodium falciparum, UniProt Q8I0U7+Q8I6T3)	β1 activity, inhibitor	–	together with: Ac-nLPnLD-AMC	–	IC50	> 10 µM
O=C(CCc1ccc(CNC(C(=O)OC2CCCC2)C2CCCCC2)cn1)NO (stereo not shown)	HDAC6	enzyme activity, inhibitor	–	–	–	IC50	0.052 µM
N#Cc1c(-c2ccco2)cc(-c2cccs2)[nH]c1=O	Protein FosB, ΔFosB isoform (Fosb, Mus musculus, UniProt P13346)	DNA binding, fluorescence polarization	–	together with: 1 mM TCEP	–	IC50	13.4 µM
CC(C)(C)CCOCCCCCN1C[C@H](O)[C@@H](O)[C@H](O)[C@H]1CO	GBA1 R534H	inhibitor, 4MU-β-D-glucopyranoside	–	together with: 4MU-β-D-glucopyranoside	–	IC50	4 µM
O=C(CSc1nc2ccccc2[nH]1)N/N=C/c1cc2c(s1)CCCC2	dxs (Deinococcus radiodurans, UniProt Q9RUB5)	inhibitor	–	estimated	–	IC50	317 ± 30.1 µM
C#Cc1cnc(Nc2ccnc(CO)c2)nc1Nc1ccccc1-c1nccs1	IRAK4	enzyme activity, inhibitor, radiometric	–	–	–	IC50	0.112 µM
Cc1nn(-c2cccc(N)c2)c(=O)c2cnc(Nc3ccc(N4CCNCC4)cc3)nc12	FGFR1 (Homo sapiens, UniProt P11362)	kinase activity, inhibitor, SelectScreen kinase profiling	–	–	–	IC50	1.83 µM
CCN(CC)CC(=O)Nc1cccc(-n2cc(-c3ccc4ccc(-c5cn(-c6cccc(NC(=O)CN(CC)CC)c6)nn5)cc4c3)nn2)c1	STK17B (Homo sapiens, UniProt O94768)	enzyme activity, inhibitor	–	–	–	IC50	> 10 µM
CC(C)CCC[C@@H](C)[C@H]1CC[C@H]2[C@@H]3CC=C4C[C@@H](OCCCCCN5C[C@H](O)[C@@H](O)[C@H](O)[C@@H]5CO)CC[C@]4(C)[C@H]3CC[C@]12C	GBA1 R534H	inhibitor, 4MU-β-D-glucopyranoside	–	together with: 4MU-β-D-glucopyranoside	–	IC50	15 µM
OC[C@H]1c2[nH]cnc2[C@H](O)[C@@H](O)[C@@H]1O	bglA (Thermotoga maritima, UniProt Q08638)	enzyme activity, inhibitor	–	pH 6.8, with preincubation	–	IC50	107 µM
CC(C)(C)OC(=O)N1CCN(c2ccc3c(O)c(C(=O)NCc4ccc(C#N)nc4)ncc3n2)CC1	Lysine-specific demethylase 6A (Homo sapiens, UniProt O15550)	enzyme activity, inhibitor, AlphaScreen	–	–	–	IC50	> 10 µM
Cc1cnc(Nc2ccc3c(c2)CCN(C(=O)/C=C/C(=O)C2CCC(C)CC2)C3)nc1-c1cnn(C(C)C)c1 (stereo not shown)	JAK3	enzyme activity, inhibitor, ADP detection	–	–	–	IC50	> 0.03 µM
Cc1cc(C(C)(C)C)ccc1OS(=O)(=O)Oc1cncc(C(=O)NO)c1	HDAC6	enzyme activity, inhibitor, fluorescence	–	–	–	IC50	0.688 µM
COc1cc(OC)c(OC)cc1/C=C/C(=O)c1ccc2c(c1)CCO2	P4HB	enzyme activity, inhibitor	–	–	–	IC50	> 100 µM
Cc1cc(NC2CCN(C)CC2)ccc1-c1cc2c(N3CCC[C@H](C(=O)NCc4ccc(OC(F)(F)F)cc4)C3)ncnc2[nH]1	CDK6	enzyme activity, inhibitor, mobility shift	–	–	–	IC50	> 8 µM
O=C(/C=C/c1cccc(Br)c1)c1ccc2c3c(cccc13)CC2	P4HB	enzyme activity, inhibitor	–	–	–	IC50	> 100 µM
CC(=O)O[C@H]1OC[C@@H]2C=C([C@@]3(C)CCCC(C)(C)C3)CC[C@H]12	PPIF (Homo sapiens, UniProt P30405)	enzyme activity, inhibitor	–	–	–	IC50	< 0.5 µM
O=C(O)Cc1cc2c(cc1C(=O)c1ccccc1Cl)OCO2	Gria1/Gria2	ion current, antagonist, patch clamp	–	–	–	IC50	4.37 µM

SMILES	target or system	assay	system	conditions	how to read	quantity	value
COc1ccc(C(=O)/C=C/c2cccc(O)c2)cc1F	P4HB	enzyme activity, inhibitor	–	–	–	IC50	> 100 µM
C[C@H](OCCCCCN1C[C@H](O)[C@@H](O)[C@H](O)[C@H]1CO)c1ccc(-c2ccccc2)cc1	GBA1 R534H	inhibitor, 4MU-β-D-glucopyranoside	–	together with: 4MU-β-D-glucopyranoside	–	IC50	400 µM
O=C(O)Cc1cc2c(cc1C(=O)c1ccccc1)OCO2	Gria1/Gria2	ion current, patch clamp	–	–	–	IC50	5.49 µM
Cc1cccc(-c2ccc(COCCCCCN3C[C@H](O)[C@@H](O)[C@H](O)[C@H]3CO)cc2)c1	GBA1 R534H	inhibitor, 4MU-β-D-glucopyranoside	–	together with: 4MU-β-D-glucopyranoside	–	IC50	0.25 µM
Cc1nn(C)c(C)c1/C=C/C(=O)N1CCC[C@H](Cc2ccc(Nc3ccccn3)nn2)C1	CDK6	enzyme activity, inhibitor, ADP detection	–	–	–	IC50	0.112 µM
CC(C)=CCC/C(C)=C/CC/C(C)=C/COCCCCCN1C[C@H](O)[C@@H](O)[C@H](O)[C@H]1CO	GBA1 R534H	inhibitor, 4MU-β-D-glucopyranoside	–	together with: 4MU-β-D-glucopyranoside	–	IC50	1.5 µM
COc1cc(/C=C/C(=O)c2ccc(F)cc2F)cc(Cl)c1O	P4HB	enzyme activity, inhibitor	–	–	–	IC50	6.52 µM
OC[C@@H]1[C@@H](O)[C@H](O)[C@@H](O)CN1CCCCCOCC1CCCCC1	GBA1 R534H	inhibitor, 4MU-β-D-glucopyranoside	–	together with: 4MU-β-D-glucopyranoside	–	IC50	1.5 µM
CC[C@H](C)C(=O)O[C@H]1C[C@@H](C)C=C2C=C[C@H](C)[C@H](CC[C@@H]3CC=CC(=O)O3)[C@H]21	CFTR (Homo sapiens, UniProt P13569)	apical chloride current, inhibitor	T84, basolaterally permeabilized	together with: CPT-cAMP 100 µM	–	IC50	1.46 µM
COC(=O)Cc1cc2c(cc1C(=O)c1cccc(I)c1)OCO2	Gria1/Gria2	ion current, antagonist, patch clamp	–	–	–	IC50	5.75 µM
CC(=O)N[C@@H](Cc1ccc([N+](=O)[O-])cc1)C(=O)N[C@@H]1CSSC[C@@H](C(=O)N[C@H](Cc2ccc(O)cc2)C(N)=O)NC(=O)[C@H]([C@@H](C)O)NC(=O)[C@H](CCCCN)NC(=O)[C@@H](Cc2c[nH]c3ccccc23)NC(=O)[C@H](Cc2ccc(O)cc2)NC1=O	SSTR1 (Homo sapiens, UniProt P30872)	ligand displacement, radioligand	–	–	–	IC50	> 1 µM
Cc1cc(C)nc(NC(=S)N2CCN(c3ccc(C(F)(F)F)cn3)CC2)c1	Glycerol-3-phosphate dehydrogenase 1-like protein (GPD1L, Homo sapiens, UniProt Q8N335)	enzyme activity	–	counterscreen	–	IC50	> 100 µM
Cc1ccc(-c2cn(Cc3cccc(Cl)c3)c3[n+]2CCC3)cc1.[Br-]	Trypanosoma cruzi	reporter mRNA translation, inhibitor, refers to: Renilla luciferase mRNA	cell-free extract	concentration not given, test 1	relative to: positive over negative control	translation activity	98.8% and 103%
OC[C@@H]1[C@@H](O)[C@H](O)[C@@H](O)CN1CCCCCOCC1CCOCC1	GBA1 R534H	inhibitor, 4MU-β-D-glucopyranoside	–	together with: 4MU-β-D-glucopyranoside	–	IC50	63 µM
CC(C)(C)n1ncc2c(=O)n(Cc3cccc(F)c3)c(NCc3ccc(F)cn3)nc21	PDE3A (Homo sapiens, UniProt Q14432)	enzyme activity, inhibitor	–	–	–	IC50	> 10 µM
O=C(O)Cc1cc2c(cc1C(=O)c1ccc(Cl)cc1Cl)OCO2	Gria1/Gria2	ion current, patch clamp	–	–	–	IC50	3.93 µM
O=C(Cc1ccc(OCc2ccccc2)cc1)NC1(C(=O)O)CCN(C(=O)c2ccc(-c3cccc(Cl)c3)cc2)CC1	LPAR2 (Homo sapiens, UniProt Q9HBW0)	antagonist, GloSensor cAMP	–	–	–	IC50	> 10 µM
CC(C)C[C@H](NC(=O)[C@H](Cc1ccc(CN)cc1)NC(=O)[C@H](Cc1ccccc1)N=[N+]=[N-])C(=O)N[C@@H](CCC1CCCCC1)C(=O)[C@@]1(C)CO1	PSMB8	enzyme activity, inhibitor	–	lysate	–	IC50	> 10 µM
C[C@](C(=O)NC1CCOCC1)(c1cncnc1)N(C(=O)[C@H](F)Cl)c1ccc(OC(F)(F)Cl)cc1	Replicase polyprotein 1ab, main protease (rep, Human coronavirus NL63, UniProt P0C6X5)	enzyme activity, inhibitor	–	–	–	IC50	0.014 µM
C=CC(=O)Nc1ccc(F)c(-c2ncnc3[nH]cc(C(=O)OCC)c23)c1	JAK3	inhibitor, kinase	–	together with: ATP 1 mM	–	IC50	0.00743 µM
CN1CCN(c2ccc3[nH]c(-c4c(NC5CCNCC5)c5cc(Cl)ccc5[nH]c4=O)nc3c2)CC1	WDR5 (Homo sapiens, UniProt P61964)	–	–	–	–	IC50	≤ 20 µM and 14.3 µM
O=C(/C=C/c1ccccc1)c1ccc2c(c1)OCCCO2	P4HB	enzyme activity, inhibitor	–	–	–	IC50	24 µM
CNC(=O)N1CCN(c2ccc(NC(=O)c3nc(N)sc3-c3ccccc3)cc2C(F)(F)F)CC1	DDR1 (Homo sapiens, UniProt Q08345)	ligand displacement	–	–	–	IC50	6.7 µM
CC(=O)n1cc([C@H]2C=C(C(=O)N3CCN(Cc4ccc5c(c4)OCO5)CC3)O[C@@H](OCc3ccc(CO)cc3)C2)c2ccccc21	Trypanosoma cruzi	reporter mRNA translation, inhibitor, refers to: Renilla luciferase mRNA	cell-free extract	concentration not given, test 3	relative to: positive over negative control	translation activity	49.5%
COc1cc(C2C(NC(=O)c3ccc(NC(=O)OC(C)(C)C)cc3)(C(=O)O)C(c3ccc(OC(=O)c4cccs4)c(OC)c3)C2(NC(=O)c2ccc(NC(=O)OC(C)(C)C)cc2)C(=O)O)ccc1OC(=O)c1cccs1 (stereo not shown)	GLP1R (Homo sapiens, UniProt P43220, L141A)	cAMP, agonist	–	–	–	EC50	0.234 µM
CC(C)(C)c1cccc(OS(=O)(=O)Oc2cc(F)cc(C(=O)NO)c2)c1	HDAC6	enzyme activity, inhibitor, fluorescence	–	–	–	IC50	0.696 µM
